Published values pooled from the literature.
Each numbered part is a random draw from the data of one study; scales do not carry over between parts. Substitutions count along the parent as printed.

Block 1 — technique: DHFR PCA, deep sequencing; medium: yeast; together with: (+)-ABA 0 µM; relative to: wild-type fitted maximum; direction: higher = stronger binding
Target: ABI1, truncated, D143A, DHFR fusion (Arabidopsis thaliana)
Notes: methotrexate growth selection, single substitutions
Starting sequence: PYL1, truncated, DHFR fusion (Arabidopsis thaliana); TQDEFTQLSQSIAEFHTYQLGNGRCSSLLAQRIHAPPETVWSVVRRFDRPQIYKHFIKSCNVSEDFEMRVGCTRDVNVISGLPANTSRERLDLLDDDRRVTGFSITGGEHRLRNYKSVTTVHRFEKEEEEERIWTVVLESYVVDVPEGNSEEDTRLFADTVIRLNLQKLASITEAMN; partner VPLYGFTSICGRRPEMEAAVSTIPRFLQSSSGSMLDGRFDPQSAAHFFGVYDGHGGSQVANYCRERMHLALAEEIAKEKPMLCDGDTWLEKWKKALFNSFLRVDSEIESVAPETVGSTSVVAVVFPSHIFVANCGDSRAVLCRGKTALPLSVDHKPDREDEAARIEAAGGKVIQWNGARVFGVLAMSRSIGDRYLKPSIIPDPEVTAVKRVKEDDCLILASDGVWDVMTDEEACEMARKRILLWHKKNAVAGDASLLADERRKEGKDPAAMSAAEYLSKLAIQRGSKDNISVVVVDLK
Substitution	relative binding score [%]
I79H	19.6
D3H	24.2
T119I	-0.165
Q51M	-6.03
R46E	-3.46
E127W	8.21
H34W	5.58
R69G	3.68
Q167Y	-9.68
E67S	11.2
D96N	2.41
T6E	44.4
E130R	28.1
S26C	16.6
T173S	26.2
I105T	-1.44
E147L	6.3
R69Q	19.4
E152H	14.1
L164D	4.69
Q7V	21.5
E152Y	4.67
S140P	9.93
I79N	9.33
A158E	-4.47

Block 2 — technique: protein binding microarray; molecule type: double-stranded DNA, one strand shown; medium: in vitro; tested at: not given; relative to: not given; direction: higher = stronger binding
Target: Histone acetyltransferase KAT6A, winged helix 2, GST fusion (KAT6A, Homo sapiens, UniProt Q92794, residues 85-181)
Notes: 8-mer, flanks averaged, mean of 2 arrays, mostly near background
Residues (chain): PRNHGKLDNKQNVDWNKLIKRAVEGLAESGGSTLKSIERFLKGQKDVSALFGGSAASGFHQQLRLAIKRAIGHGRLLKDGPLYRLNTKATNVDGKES
Sequence	E-score
CCTTGGGA	0.0743
CTGACTAA	0.0838
ACTCTGAG	-0.0679
CTTCTTCA	-0.0973
CAGCGCAA	0.0611
ACAGCGCG	0.0347
ACCTCCGC	0.046
ATTAGGAA	0.0684
CGGAGTCA	-0.0606
TAAACAAA	-0.11
CTACGTTA	-0.0264
ATCTCTTC	-0.0222
AACAGTAT	-0.0787
ATTGAAAA	0.00916
GAAGGCAC	0.21
ACATAATA	0.0857
AAAGGGCC	-0.117
CTTGCAAG	0.288
CATGCGAC	0.115
TCAACTAA	0.035
GAGGAACA	0.0744
AGCAGGTG	0.13
AAGAATTA	-0.0341
CAACTGAG	0.141
CACTAGTG	0.0702

Block 3 — technique: RNA Bind-n-Seq; molecule type: RNA; medium: in vitro; tested at: 365 nM; relative to: no-protein control; direction: higher = stronger binding
Target: RNA binding protein fox-1 homolog 2, RRM domain, GST-SBP tag (RBFOX2, Homo sapiens, UniProt O43251-10, residues 100-194)
Notes: natural RNA segment, single round, ends assumed
Constant ends, left off below: GGGAGUUCUACAGUCCGACGAUC … UGGAAUUCUCGGGUGCCAA
Target sequence (chain): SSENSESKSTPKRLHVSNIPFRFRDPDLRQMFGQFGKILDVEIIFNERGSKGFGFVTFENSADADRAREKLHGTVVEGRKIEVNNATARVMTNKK
Sequence	RBNS enrichment (R)
CCAGGUCAUACUGAUGCAAGAAGUGGGUUCCCAUGGUCUUGGGCAGCUCUGCCCCUGUGGCUUUGUAGGGUACAGCCUCCCUCCUGGCUGCUUUCACGGCUGUUGUUCAG	0.879
UUGACACUGAGGGAAGUCCUAUCUGUCAGUCCUGACCACUUAAGCCAGGACCCCAUGCUUCCUUUACUCUGUCUCCUCAUCUCUGUACCUCCCCUGACACCCCAGUCCUG	0.504
UCCAAAAGCCACUUUAUUUAGGGUUUAUUCACAAGUCAUAUCCAUUUUGGUACAGUGUUUGUUUCCUAAUAUUUAUUAACCACCUUAUACCAAAUGUCUUGCAAAGAAAU	0.932
GACCUCUGCCUGGAGACGCAGCAGCCUGUGUCCUCCAGGGCCUCUGGUUUGUUGUAUUAUAGUAUAUUUCGCUGUGGAAAAUGUCACGUUUAGUCACCUUGGAGCCCACU	0.34
CAGCUGAGCCUGAGCCAAUGGGACAGUUACACUUGACAGACAAAGAUGGUGGAGAUUGGCAUGCCAUUGAAACUAAGAGCUCUCAAGUCAAGGAAGCUGGGCUGGGCAGU	0.77
UGGCCAAGGGUAGUUUUCAGCUCAAUUUAUAGAAUAGUCCAAAGAGACUUUGAGAAACAUGGUGAUAGGCAGGGGCCUUUCCUACCAUGUUUCAAUACCUACAAACCUAU	0.484
AGGUUAAACAAAAGCAUAUUUUAGAAACAGACAAAAGCCAACUGAAAAUCGUGGAUGAAUAGUUACUCUGGACAGGACUUUUGACAUGUCUUGCUCUGUGGAAUUUUGUG	2.16
UUUUUAAUUGCUGUUUUCGUUGCUGCAGUACUUUACAAACUUCUAGUUCGUUGAGACUUAGUGACCAUUUGGCAUCAAGUUAACAUCACACAAUAGGAAACACCACUUCC	0.355

Block 4 — technique: RNAcompete; molecule type: RNA; medium: in vitro; tested at: 20 nM; notes: 7-mer, probes averaged, single round; relative to: mean of 7-mers; direction: higher = stronger binding
Target: PABPC1L2, full length, GST fusion (mouse, UniProt A0ABA7IW68)
Target sequence (chain): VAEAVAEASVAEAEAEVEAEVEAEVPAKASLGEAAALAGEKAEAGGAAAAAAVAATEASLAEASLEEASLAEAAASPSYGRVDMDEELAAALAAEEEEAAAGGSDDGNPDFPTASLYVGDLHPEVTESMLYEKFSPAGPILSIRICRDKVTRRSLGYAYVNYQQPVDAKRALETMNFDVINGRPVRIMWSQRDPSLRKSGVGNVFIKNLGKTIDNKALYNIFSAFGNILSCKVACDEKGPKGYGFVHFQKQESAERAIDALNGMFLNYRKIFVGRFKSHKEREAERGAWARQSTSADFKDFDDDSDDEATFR
Sequence	7-mer Z-score
AGCAUAA	0.648
UGCUAGU	-0.324
CACAGUA	-0.117
GUCUGGU	-0.237
ACACUGC	-0.148
CUCUGGG	-0.0989
UAAGUUA	-0.148
ACCGCUU	-0.213
CUUGACC	-0.229
UGGCCUC	-0.277
GAGACGU	-0.171
GCUCAUC	-0.354
GGGAGGG	0.463
AAGGAUU	-0.021
AAAUCAA	1.06
CACCCCC	-0.47
ACGGGCG	0.273
CGCUCGG	-0.213
UGGUAAA	0.593
AAACAAA	5.43
UAGGCAC	0.0424
UGAGUCG	-0.454

Repeated from above (block 2):
Sequence	E-score
ACCTCCGC	0.046
AACAGTAT	-0.0787
ATTAGGAA	0.0684
ACTCTGAG	-0.0679
AAAGGGCC	-0.117
